Results collected from several papers.
Each numbered part is a random draw from the data of one study; scales do not carry over between parts.

Sample 1
Target: Histone acetyltransferase KAT6A, winged helix 1, GST fusion (KAT6A, Homo sapiens, UniProt Q92794, residues 1-85)
Method: protein binding microarray
Form: double-stranded DNA, one strand shown
Matrix: in vitro
Tested at: not given
Notes: 8-mer, flanks averaged, mean of 2 arrays, mostly near background
Relative to: not given
Reading: higher = stronger binding
Measurement: E-score
Construct (chain): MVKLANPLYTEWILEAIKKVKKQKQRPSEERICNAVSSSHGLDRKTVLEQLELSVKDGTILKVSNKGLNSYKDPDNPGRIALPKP
Sequence = ATGCGGCA; result = 0.245
Sequence = CAACCAAG; result = -0.209
Sequence = TAATAGCA; result = -0.162
Sequence = GCATCGGC; result = 0.252
Sequence = GAACGTTA; result = 0.097
Sequence = ATGGGTTA; result = -0.101
Sequence = CGGCAGCA; result = 0.284
Sequence = CAAGGGGA; result = -0.204
Sequence = ACAGGACA; result = -0.15
Sequence = CGATCACA; result = -0.204
Sequence = ACTCATTG; result = -0.162
Sequence = AGATAGGG; result = -0.18
Sequence = CCCACTAC; result = -0.323
Sequence = CACTTAAA; result = -0.229
Sequence = AAGCCGAA; result = -0.0116
Sequence = CCATCAAA; result = -0.17
Sequence = CAGCTATA; result = -0.094
Sequence = GGATCAAC; result = -0.0868
Sequence = CCATATCA; result = -0.121
Sequence = ACGACCAT; result = -0.267
Sequence = ATTTCCCC; result = 0.0177
Sequence = CGTAGTTC; result = 0.155
Sequence = CGGGCATC; result = 0.166
Sequence = GTGTATCA; result = -0.16
Sequence = CCTCGTGC; result = -0.0916

Sample 2
Target: Sal-like protein 4, full length isoform A (SALL4, Homo sapiens, UniProt Q9UJQ4, residues 1-1053)
Sequence of UniProt Q9UJQ4 (whole entry, looked up): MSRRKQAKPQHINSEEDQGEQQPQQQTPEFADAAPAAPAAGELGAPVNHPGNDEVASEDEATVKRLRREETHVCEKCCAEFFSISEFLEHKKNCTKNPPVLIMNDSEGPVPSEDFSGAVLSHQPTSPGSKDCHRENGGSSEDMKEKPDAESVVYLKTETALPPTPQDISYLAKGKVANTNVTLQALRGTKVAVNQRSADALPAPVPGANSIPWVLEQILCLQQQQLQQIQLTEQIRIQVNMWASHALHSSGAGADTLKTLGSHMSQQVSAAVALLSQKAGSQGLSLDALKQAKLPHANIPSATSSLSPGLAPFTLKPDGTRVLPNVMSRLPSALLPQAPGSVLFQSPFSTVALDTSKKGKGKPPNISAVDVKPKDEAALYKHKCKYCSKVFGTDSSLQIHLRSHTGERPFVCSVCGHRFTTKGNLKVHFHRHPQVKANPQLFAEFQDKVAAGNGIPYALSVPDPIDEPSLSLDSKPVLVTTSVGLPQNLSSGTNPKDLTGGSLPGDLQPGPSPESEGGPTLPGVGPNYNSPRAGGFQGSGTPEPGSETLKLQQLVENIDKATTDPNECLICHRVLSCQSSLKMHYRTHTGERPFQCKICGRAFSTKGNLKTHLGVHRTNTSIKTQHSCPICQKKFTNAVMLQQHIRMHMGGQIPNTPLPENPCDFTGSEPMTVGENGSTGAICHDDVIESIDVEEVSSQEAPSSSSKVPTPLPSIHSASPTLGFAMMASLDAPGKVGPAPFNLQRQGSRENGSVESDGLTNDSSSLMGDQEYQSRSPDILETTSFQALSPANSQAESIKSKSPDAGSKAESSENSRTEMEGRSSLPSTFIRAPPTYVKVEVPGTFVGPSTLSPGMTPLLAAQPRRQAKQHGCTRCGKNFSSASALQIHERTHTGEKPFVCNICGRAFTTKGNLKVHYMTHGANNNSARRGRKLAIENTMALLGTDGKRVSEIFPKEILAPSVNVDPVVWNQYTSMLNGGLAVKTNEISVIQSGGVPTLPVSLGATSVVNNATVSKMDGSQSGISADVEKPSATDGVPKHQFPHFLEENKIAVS
Method: universal PBM
Form: double-stranded DNA, one strand shown
Matrix: in vitro
Tested at: 600 nM
Notes: 8-mer, flanks averaged, mean of replicates
Reading: higher = stronger binding
Measurement: E-score
Sequence = AGTTGGGG; result = -0.137
Sequence = ATACAAAC; result = 0.252
Sequence = GCGTTCTA; result = -0.093
Sequence = CCTCTCTC; result = -0.0717
Sequence = CCTCCGGC; result = -0.398
Sequence = ACTAAATG; result = 0.17
Sequence = GCAAAGAC; result = 0.0791
Sequence = ATCCTCGA; result = -0.00732
Sequence = CCTCGGCC; result = -0.301
Sequence = ACACGTCT; result = -0.0042
Sequence = AAATGGGC; result = -0.104
Sequence = TTAGCTAA; result = 0.147
Sequence = CTAACTTA; result = 0.255
Sequence = CCCAAGGG; result = -0.355
Sequence = AGGTCTCA; result = -0.131
Sequence = ATCTTGGC; result = -0.0231
Sequence = TAACGCTA; result = 0.135
Sequence = ATCAGCCC; result = -0.143
Sequence = AAGTAAAC; result = 0.162
Sequence = AACGATCA; result = 0.0935
Sequence = GACTGGGA; result = -0.183
Sequence = AACTCCAG; result = -0.164
Sequence = CTCTGGTA; result = 0.101
Sequence = CCTGTGCC; result = -0.229
Sequence = ACTGTACA; result = 0.0823

Sample 3
Target: RNA binding protein fox-1 homolog 2, RRM domain, GST-SBP tag (RBFOX2, Homo sapiens, UniProt O43251-10, residues 100-194)
Method: RNA Bind-n-Seq
Form: RNA
Matrix: in vitro
Tested at: 365 nM
Notes: natural RNA segment, single round, ends assumed
Relative to: no-protein control
Reading: higher = stronger binding
Measurement: RBNS enrichment (R)
Shared flanks, not repeated: GGGAGUUCUACAGUCCGACGAUC … UGGAAUUCUCGGGUGCCAA
Residues (chain): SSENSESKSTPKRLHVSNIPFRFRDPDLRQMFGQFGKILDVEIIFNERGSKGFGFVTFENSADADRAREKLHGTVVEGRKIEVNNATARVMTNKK
Sequence = AAGUCUGCUCAGCUGCAUGGUGGAAAGGACUGUGUUCUUUUUUUUCUUGCACACAAUUCCUUUGAAAUUACAUUGACAGCCAGGAGACAAAGGAGAGAACUGUUAACUAG; result = 0.736
Sequence = GUGUUACGUGCAGGAACGUGGAGACCCUGACGUGGGCUCACUGCGUUUGGUUUUCUUUUCAGAACUUGGGAGCCCCCAGGGAGGGGCUAGUGUUGGUAGGUCCUAGACGU; result = 0.469
Sequence = GGGAAGGAGCAGGGAUGAGACUGGCAAUGGUCACAGGGAAAGAUGUGGCCUUUUGUGAUGGUUUUAUUUUCUGUUAACACUGUGUCCUGGGGGGGCUGGGAAGUCCCCUG; result = 0.282
Sequence = GAGUGAGUGUUCACUCUUUUGUCUGUGGAGUCUGCUGUGUGGCAGGAUCCCAGCCCUAGAGCUGCAGGGCUGCCCUGUGGGACAGCGCAGCCUAAGCUGAUUUGGAUCUG; result = 0.391
Sequence = AGCAAAAUUGUGCUAAAGGCUUUUCUACUCUGAGAUCUCAAUGCGAAAUGAAAACUCAGGCAGUUUAGUCCAUAGUGGUACUAUUUUGAUGAUAUUUUCCAUUAAUAAAA; result = 0.363
Sequence = GAGUGCCUAUCUGUGCUCUUUCCUCCCUCUGCGGGCUUCUCUUGCUCUGAGCCUCCCUUCCCCAUUCCCCAUCCAGCUCCUUUCCCCCUGGGUUUCCUUGGCUUCCUGCA; result = 3.51
Sequence = UUUUUAAUUGGUGUUAGAUGACAUGAUUAAUAAAAAAGGCAAGAUAUUUUCAGAAUUUGAAUUUCAGUUUUUUUUUCUUUUGAAAUAGCCCUUUUAAAUUUUUUUAUUAU; result = 1.63
Sequence = AGCUUUUCUCCAUCCGCAGACAGCCCUGUUCAGAGAGUACCGAGCACCAGCCCUGUGCGGCUUCCUCAUCCCCACCUCACCCCCAACCACUACUGUAGGGCACAAUGACU; result = 0.384
Sequence = AAGCAUCUUUGAGGAAACUCCUACUUCAGUUCUUUUGUUAUGAUGAAGACAUUUGUGAGAGAGGAGAUGAUUAGAAUUCUAGUAAUGUACUUUUAAGAUGUUACAGAUAC; result = 0.892
Sequence = CUGCCCUGUCCCUCCUUGGAAACAGCAGCUUUGCCGAGGGCUCCCCAGCUUCCAUCUCAGGAGACCAGAACUCAUGGAAAAAUUAGGCACUUUUGGCUAAAAGUGCGAAU; result = 0.27
Sequence = UCACUUCAUUUUCAGAGUUAAUGGGAUCCAUGGUGCAAACUCCAUUAGCAGUUUUAUGCUGGCGAUAAUUUAUCUACGUGCAUUGCAAUAAACAUUUCGUUUCCUAAGAU; result = 0.917
Sequence = UUUAUCACAACUGACUACUGGACCAGGGCCCAGAAAUGUGGGUCAAGUUACAUGUGAAUUUGUUUGGUGAAGAAGGGAAGCUGGGAUGGUAACAGAGCGUCACCACAUAG; result = 0.323

Sample 4
Target: RING finger protein unkempt homolog, zinc fingers 1-6, SBP tag (UNK, Homo sapiens, UniProt Q9C0B0, residues 30-357)
Sequence of UniProt Q9C0B0 (30-357, looked up): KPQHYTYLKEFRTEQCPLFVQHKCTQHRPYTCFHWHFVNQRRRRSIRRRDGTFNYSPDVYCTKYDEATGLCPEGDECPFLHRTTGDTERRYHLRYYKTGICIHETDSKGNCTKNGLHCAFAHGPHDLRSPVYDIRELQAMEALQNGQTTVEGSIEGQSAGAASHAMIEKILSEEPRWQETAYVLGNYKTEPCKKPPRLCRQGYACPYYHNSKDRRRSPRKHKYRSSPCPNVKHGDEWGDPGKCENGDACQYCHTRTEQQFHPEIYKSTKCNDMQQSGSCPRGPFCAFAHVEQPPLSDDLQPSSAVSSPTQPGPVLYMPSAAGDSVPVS
Method: RNA Bind-n-Seq
Form: RNA
Matrix: in vitro
Tested at: 100 nM
Notes: RNA with constant flanks, vertebrate orthologous sites, ends assumed
Relative to: input RNA pool
Reading: higher = stronger binding
Measurement: bound/input enrichment
Shared flanks, not repeated: GGGAGUUCUACAGUCCGACGAUC … CAACAGAGGAUUGAGCAUCA
Sequence = CAUAGAAUAUUGGAUGCAGCAUAUAAAUUAUCCAAGGCAGUGACUUCAGCUCUAUAGAGAUUGUUAGUUUUAAAGGCACCUACUUUUAUUUAAACUUCUAGAUUGGAUUGUUUGCUAUUG; result = 1.14 ratio
Sequence = GUUGUGACCCAUUUAAUGAGCACAGAAAAUUAUCAAAGAAAAAUUUACGUGCAAUUGACUUACAUGAUGCAACUUUUCUAAGUGCCAAGUUUGGAAGACAGUUUGUACCUGGCUGGAAGC; result = 0.703 ratio
Sequence = UCUCUCGCUUAACUGUGUCCGAAGUUGCUAUGAGGAUUGGAAACAUUCAUUAGUUUCAUGUAGAACUACACUGGCAGGUGCUCAAUUCCCAUCAUAGCAAGAUCAAAUACCAUCACAGUA; result = 0.959 ratio
Sequence = UCCAGUCUUACACUUAUGGUUGGCCUCAAAUCUAUUGCAUUUAUGAUAAUGUAUUAUAUCUAGUUGAGUUUAAUAUUUUUUAUUAGCCUGUAAAUAAAGAUGGCAUCUUCUACAUUAAAA; result = 0.514 ratio
Sequence = CUAUAUGGCCCUCGCAGAGUUGAGAUCAUGGAAGAGGAAAGUGAAUAGUAAUGUUCAUUUUAGUAUUUAUGUUUAGGUGUGAAAUAAAUGUUAUUUGUUGAUCUUUUCUAUAAUCUAGGG; result = 0.746 ratio
Sequence = UGCCUACAAUAAUGAAAAACCUAAAGGAAUUUUUUAUUUUUAAUUUUCCCCUUAGGCAUAUUUAGACAUCUUUUUUCCAGGCAGAUCAUUCAGAGUGUGCGAGUGUGUGUGCACAUGUUA; result = 0.485 ratio
Sequence = UUACAGUCAUUGAUGGACUCUAUUUUUUUAUUAUUACUUGGACCUUGGUCGUUUUUAUACUAGCAACGAAAAAUGUCUUGUUUUAAUUUGUUUUUUGUUUUUUUUUUUGGGGGGGGGGAA; result = 4.56 ratio
Sequence = UCCUUUUAGGAUGAAGCUGUUACACCAGGUAUCACGGGUCUGGAAAACAGAUGGCUUAUCGAGUUGUUCUUACAGAUUACUCUCUGUGGAGCACAAUCCUUUAUAUACUAACAUCACAGU; result = 1.16 ratio
Sequence = GUUGUGACCCCUUUAACAUCCAUAAAAAGCUGGCCAAAAAAAAUCUGCAUGUCAUUGACUUAGAUGAUGCCACUUUCCUGAGUGCGAAGUUUGGCAGGCAGCUGGUGCCUGGUUGGAAGC; result = 0.456 ratio
Sequence = AGGGAUGGCCCCCAAUCCCACCUCUGUUUAUUCUGUAAACUACAACCUACAAAUAACCUUUAGCAUUCCUAUUGUAACAAAAUUAAUUUUUAUGAAAUAAAUUAUAUUUCCUAGUCUAAU; result = 0.769 ratio
Sequence = UUAUGUUUUUGUGGGGGAUGGAGGAUGGGGAGUGGGGGAUGGGAGGCUGGCGUCAGCAUUAUGAAAUAUUCCAAAGCUUUUCUUUUUUGUGCUUUGUUUUCCCUUUUAAUUGGAUGCACU; result = 1.09 ratio

Sample 5
Target: Interferon regulatory factor 5, full length, phosphomimetic (IRF5, Homo sapiens, UniProt Q13568-2, residues 1-514, S451D/S453D/S456D/S462D)
Method: protein-binding microarray
Form: double-stranded DNA, one strand shown
Matrix: in vitro
Tested at: 940 nM top
Notes: 60-bp whole probe
Together with: salmon DNA 0.4 mg/ml
Relative to: random background probes
Reading: higher = stronger binding
Measurement: fitted relative affinity
Shared flanks, not repeated: GCCTAGCAC … GTCTTGATTCGCTTGACGCTGCTG
Sequence = TTAGATATCCTACTGCTTTAGTGCTAG; result = 0.172 z-score
Sequence = TTAGGTCTGCTTCTCCTTTAGTGCTAG; result = -0.147 z-score
Sequence = GACGGTATCCTTATCCTGAAGTGCTAG; result = 0.275 z-score
Sequence = TAAGATTTCAGACTGGATTAGTGCTAG; result = -0.608 z-score
Sequence = CCACATTTGATAAATCTTTGTGTGCTA; result = 0.349 z-score
Sequence = TTAGGACTGGACAATCGGTTAGTGCTA; result = -0.373 z-score
Sequence = CTAGCTTCCATTTTCTGAACGTGCTAG; result = 0.669 z-score
Sequence = TTAGATTTCAGTTCGGATTAGTGCTAG; result = 0.784 z-score
Sequence = TTATGACTGGGTCTCGGTTAGTGCTAG; result = 1.15 z-score
Sequence = TCACAGCTATTTTTAGGACTGTGCTAG; result = 0.0221 z-score
Sequence = GACGGTCTCGGTTTTGGGACGTGCTAG; result = 3.93 z-score
Sequence = TCATTTTTTCATATATAACTGTGCTAG; result = 1.48 z-score
Sequence = TCAACTTTCAGTTCTCCACTGTGCTAG; result = 2.04 z-score
Sequence = TTAGATTTCAGACTTGATTAGTGCTAG; result = 0.126 z-score
Sequence = TCAGCTCTGTTGCCTGGTACTGTGCTA; result = 0.208 z-score
Sequence = TTACGACTGGGACTGGGTTAGTGCTAG; result = -0.0763 z-score
Sequence = TTAGTTCTCGGTCTCGGTTAGTGCTAG; result = 6.78 z-score
Sequence = GACGGTATACTTTTCCTGACGTGCTAG; result = 0.148 z-score
Sequence = TAAGGACTGCTTCTCCTTTAGTGCTAG; result = 0.0133 z-score
Sequence = TTAGGACTGCTTATCCCTTAGTGCTAG; result = -0.441 z-score
Sequence = AACGGTATCCTACTGCTGACGTGCTAG; result = -0.0349 z-score
Sequence = GAGGGACTGGACACTGGGGACGTGCTA; result = -0.53 z-score
Sequence = GACGAACTGGGTTTCGGGACGTGCTAG; result = 3.09 z-score
Sequence = CATTGCTTGTGTTTATTGTGGTGCTAG; result = 0.692 z-score
Sequence = GTGGGTTTGAGTCTTCTCCTGTGCTAG; result = -0.131 z-score
